{"data": "Experimental data gathered from unrelated publications", "note": "Numbered parts are unrelated; each lists some results of a single study. Values joined by “and” are separate records of one study, mostly repeats; a detail may differ.", "sequence of UniProt P50750 (whole entry, looked up)": "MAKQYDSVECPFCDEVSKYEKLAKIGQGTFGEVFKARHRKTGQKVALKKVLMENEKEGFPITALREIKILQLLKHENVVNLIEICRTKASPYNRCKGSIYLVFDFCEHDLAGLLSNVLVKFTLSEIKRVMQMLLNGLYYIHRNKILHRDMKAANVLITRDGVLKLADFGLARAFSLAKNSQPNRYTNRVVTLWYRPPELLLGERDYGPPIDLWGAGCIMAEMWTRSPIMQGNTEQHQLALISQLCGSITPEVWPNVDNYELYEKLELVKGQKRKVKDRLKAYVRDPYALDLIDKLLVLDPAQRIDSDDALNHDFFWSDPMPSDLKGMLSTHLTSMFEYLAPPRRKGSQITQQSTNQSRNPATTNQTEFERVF", "sequence of UniProt Q7KZI7 (whole entry, looked up)": "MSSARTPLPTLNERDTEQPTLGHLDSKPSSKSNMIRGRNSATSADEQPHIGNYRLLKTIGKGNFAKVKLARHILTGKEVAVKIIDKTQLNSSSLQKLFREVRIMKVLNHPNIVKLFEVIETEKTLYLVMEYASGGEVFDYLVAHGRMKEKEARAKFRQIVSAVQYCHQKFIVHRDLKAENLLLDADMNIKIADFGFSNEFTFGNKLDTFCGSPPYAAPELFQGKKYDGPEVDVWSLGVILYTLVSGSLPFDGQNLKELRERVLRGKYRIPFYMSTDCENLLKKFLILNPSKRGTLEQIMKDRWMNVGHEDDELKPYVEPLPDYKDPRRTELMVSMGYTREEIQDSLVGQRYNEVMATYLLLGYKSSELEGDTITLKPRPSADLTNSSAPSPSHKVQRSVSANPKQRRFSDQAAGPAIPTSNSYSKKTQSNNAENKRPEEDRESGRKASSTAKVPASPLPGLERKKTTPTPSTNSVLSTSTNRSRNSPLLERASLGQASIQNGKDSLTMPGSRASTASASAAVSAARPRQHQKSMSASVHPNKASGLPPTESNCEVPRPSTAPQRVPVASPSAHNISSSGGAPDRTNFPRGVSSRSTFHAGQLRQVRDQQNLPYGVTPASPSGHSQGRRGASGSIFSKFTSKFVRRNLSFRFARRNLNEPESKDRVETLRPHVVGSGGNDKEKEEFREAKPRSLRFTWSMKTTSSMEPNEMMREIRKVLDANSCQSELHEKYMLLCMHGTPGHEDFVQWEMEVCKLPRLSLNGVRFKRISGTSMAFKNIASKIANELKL", "sequence of UniProt Q86UE8 (whole entry, looked up)": "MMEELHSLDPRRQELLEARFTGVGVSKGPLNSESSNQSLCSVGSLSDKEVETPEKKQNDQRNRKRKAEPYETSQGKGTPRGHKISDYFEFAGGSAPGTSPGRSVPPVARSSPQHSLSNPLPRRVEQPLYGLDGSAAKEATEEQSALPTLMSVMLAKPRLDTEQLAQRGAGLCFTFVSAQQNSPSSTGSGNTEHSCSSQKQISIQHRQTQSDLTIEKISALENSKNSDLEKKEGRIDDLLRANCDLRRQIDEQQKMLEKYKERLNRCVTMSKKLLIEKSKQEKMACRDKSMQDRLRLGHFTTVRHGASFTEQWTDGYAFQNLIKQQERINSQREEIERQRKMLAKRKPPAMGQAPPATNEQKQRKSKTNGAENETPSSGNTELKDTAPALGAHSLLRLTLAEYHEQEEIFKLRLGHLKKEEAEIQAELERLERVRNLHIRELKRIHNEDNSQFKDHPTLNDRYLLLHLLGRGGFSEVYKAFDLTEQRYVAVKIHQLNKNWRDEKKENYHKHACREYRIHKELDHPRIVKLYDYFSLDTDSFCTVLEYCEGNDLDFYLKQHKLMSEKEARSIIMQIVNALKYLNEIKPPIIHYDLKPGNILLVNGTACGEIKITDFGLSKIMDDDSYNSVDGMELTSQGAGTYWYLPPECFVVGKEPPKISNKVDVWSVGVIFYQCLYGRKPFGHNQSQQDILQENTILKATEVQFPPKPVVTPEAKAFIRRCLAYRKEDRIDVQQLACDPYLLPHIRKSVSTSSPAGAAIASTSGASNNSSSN", "sequence of UniProt Q8IVW4 (whole entry, looked up)": "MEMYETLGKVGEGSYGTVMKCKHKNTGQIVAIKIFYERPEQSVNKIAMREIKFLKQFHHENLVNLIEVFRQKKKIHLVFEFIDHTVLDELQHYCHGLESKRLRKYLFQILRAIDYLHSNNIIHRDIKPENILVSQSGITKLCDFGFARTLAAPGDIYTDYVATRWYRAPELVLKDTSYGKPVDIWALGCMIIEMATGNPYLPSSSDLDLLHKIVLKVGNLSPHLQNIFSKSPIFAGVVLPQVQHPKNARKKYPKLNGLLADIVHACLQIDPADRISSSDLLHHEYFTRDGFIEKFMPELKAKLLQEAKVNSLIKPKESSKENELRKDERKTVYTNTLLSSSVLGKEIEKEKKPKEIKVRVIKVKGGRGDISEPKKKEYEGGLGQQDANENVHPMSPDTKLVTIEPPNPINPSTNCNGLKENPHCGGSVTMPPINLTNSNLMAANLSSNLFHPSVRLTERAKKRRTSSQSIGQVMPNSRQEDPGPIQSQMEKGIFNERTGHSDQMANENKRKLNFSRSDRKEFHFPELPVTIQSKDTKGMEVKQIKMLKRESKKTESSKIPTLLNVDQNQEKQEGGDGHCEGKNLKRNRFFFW", "sequence of UniProt P10721 (whole entry, looked up)": "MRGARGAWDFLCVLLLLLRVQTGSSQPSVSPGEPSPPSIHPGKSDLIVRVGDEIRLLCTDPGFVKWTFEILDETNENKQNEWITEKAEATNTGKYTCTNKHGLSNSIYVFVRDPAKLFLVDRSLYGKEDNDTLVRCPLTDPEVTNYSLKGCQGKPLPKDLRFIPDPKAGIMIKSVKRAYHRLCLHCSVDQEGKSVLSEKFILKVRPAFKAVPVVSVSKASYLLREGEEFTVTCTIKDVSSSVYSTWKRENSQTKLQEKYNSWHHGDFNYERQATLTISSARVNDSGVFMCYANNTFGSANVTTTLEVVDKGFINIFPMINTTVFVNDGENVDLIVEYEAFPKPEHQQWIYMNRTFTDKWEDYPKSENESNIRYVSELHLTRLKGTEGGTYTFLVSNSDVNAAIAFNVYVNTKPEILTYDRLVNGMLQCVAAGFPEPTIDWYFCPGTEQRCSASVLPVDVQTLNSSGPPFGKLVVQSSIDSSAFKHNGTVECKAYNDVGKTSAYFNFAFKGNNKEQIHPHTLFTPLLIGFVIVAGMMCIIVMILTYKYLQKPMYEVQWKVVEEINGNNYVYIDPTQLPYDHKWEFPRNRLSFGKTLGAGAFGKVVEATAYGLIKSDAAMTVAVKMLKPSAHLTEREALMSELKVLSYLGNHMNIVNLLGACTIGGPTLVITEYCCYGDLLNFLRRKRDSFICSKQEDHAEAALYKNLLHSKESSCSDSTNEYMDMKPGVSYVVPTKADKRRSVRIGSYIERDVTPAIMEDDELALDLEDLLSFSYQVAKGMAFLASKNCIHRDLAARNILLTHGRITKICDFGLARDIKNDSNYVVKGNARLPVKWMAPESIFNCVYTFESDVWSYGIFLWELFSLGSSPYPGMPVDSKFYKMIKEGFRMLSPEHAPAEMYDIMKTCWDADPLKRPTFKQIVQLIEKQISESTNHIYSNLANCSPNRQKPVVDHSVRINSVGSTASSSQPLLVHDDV", "sequence of UniProt P42681 (whole entry, looked up)": "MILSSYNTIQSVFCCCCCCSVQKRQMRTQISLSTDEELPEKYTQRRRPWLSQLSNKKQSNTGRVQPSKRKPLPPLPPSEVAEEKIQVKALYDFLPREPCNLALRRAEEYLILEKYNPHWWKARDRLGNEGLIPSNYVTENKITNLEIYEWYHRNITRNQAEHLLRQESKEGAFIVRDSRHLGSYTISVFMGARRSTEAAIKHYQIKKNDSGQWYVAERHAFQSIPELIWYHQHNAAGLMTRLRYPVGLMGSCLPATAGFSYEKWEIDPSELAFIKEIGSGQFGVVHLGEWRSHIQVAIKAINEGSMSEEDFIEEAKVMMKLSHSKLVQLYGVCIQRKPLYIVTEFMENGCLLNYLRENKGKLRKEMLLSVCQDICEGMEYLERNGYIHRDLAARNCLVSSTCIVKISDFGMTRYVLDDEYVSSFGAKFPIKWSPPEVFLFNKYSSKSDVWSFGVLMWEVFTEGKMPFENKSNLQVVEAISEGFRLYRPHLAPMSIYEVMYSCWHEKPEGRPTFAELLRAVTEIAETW", "sequence of UniProt Q15759 (whole entry, looked up)": "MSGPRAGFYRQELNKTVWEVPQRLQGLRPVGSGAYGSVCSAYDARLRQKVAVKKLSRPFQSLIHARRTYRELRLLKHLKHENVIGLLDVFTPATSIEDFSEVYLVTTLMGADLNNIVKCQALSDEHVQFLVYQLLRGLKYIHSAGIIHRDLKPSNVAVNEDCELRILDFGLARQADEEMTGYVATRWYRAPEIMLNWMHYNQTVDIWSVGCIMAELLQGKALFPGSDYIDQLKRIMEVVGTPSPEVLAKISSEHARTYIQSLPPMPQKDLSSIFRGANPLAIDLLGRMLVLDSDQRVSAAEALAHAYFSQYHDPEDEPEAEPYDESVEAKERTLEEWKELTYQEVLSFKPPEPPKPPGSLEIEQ"}
{"data": "Sample 1", "cell line": "mouse MPNST tumor cells", "technique": "high-content nuclear imaging", "item": "cell number", "tested at": "10 µM", "time": "12 h", "setting": "mean of 2 replicates", "baseline": "plate mean", "direction": "higher = more cells"}
{"SMILES": "CCOC(=O)[C@@H](C)Oc1cccc2c(=O)n(CC(=O)Nc3ccc4c(c3)OCCO4)ccc12", "nuclei count": "0.326 z-score"}
{"SMILES": "COC(=O)[C@H](c1ccccc1Cl)N1CCc2sccc2C1", "nuclei count": "0.411 z-score and 1.94 z-score"}
{"SMILES": "NNCCc1ccccc1", "nuclei count": "-0.254 z-score"}
{"SMILES": "Nc1ccc(S(=O)(=O)Nc2ccnn2-c2ccccc2)cc1", "nuclei count": "-0.643 z-score"}
{"SMILES": "CCCCCCCCc1ccc(-c2ccc(C(=O)O)cc2)cc1", "nuclei count": "-0.213 z-score"}
{"data": "Sample 2", "SMILES": "Nc1ncnc2c1cnn2-c1ccccc1", "observed": "enzyme activity", "mode": "inhibitor", "tested at": "0.5 µM", "baseline": "control"}
{"target": "Serine/threonine-protein kinase MARK2 (MARK2, Homo sapiens, UniProt Q7KZI7)", "remaining activity [%]": 95.3}
{"target": "Serine/threonine-protein kinase DCLK2 (DCLK2, Homo sapiens, UniProt Q8N568)", "remaining activity [%]": 101}
{"target": "Serine/threonine-protein kinase Nek3 (NEK3, Homo sapiens, UniProt P51956)", "remaining activity [%]": 93.5}
{"target": "Misshapen-like kinase 1 (MINK1, Homo sapiens, UniProt Q8N4C8)", "remaining activity [%]": 88.9}
{"target": "Cyclin-dependent kinase 9, with cyclin K (CDK9, Homo sapiens, UniProt P50750)", "remaining activity [%]": 92.9}
{"target": "Mitogen-activated protein kinase 11 (MAPK11, Homo sapiens, UniProt Q15759)", "remaining activity [%]": 99.9}
{"target": "Calcium/calmodulin-dependent protein kinase type 1B (PNCK, Homo sapiens, UniProt Q6P2M8)", "remaining activity [%]": 97.5}
{"target": "Tyrosine-protein kinase TXK (TXK, Homo sapiens, UniProt P42681)", "remaining activity [%]": 94.8}
{"target": "Rho-associated protein kinase 1 (ROCK1, Homo sapiens, UniProt Q13464)", "remaining activity [%]": 93.8}
{"target": "Dual specificity mitogen-activated protein kinase kinase 1 (MAP2K1, Homo sapiens, UniProt Q02750)", "remaining activity [%]": 93.9}
{"target": "Serine/threonine-protein kinase tousled-like 2 (TLK2, Homo sapiens, UniProt Q86UE8)", "remaining activity [%]": 110}
{"target": "Ribosomal protein S6 kinase alpha-4 (RPS6KA4, Homo sapiens, UniProt O75676)", "remaining activity [%]": 106}
{"target": "Calcium/calmodulin-dependent protein kinase type IV (CAMK4, Homo sapiens, UniProt Q16566)", "remaining activity [%]": 104}
{"target": "MAP/microtubule affinity-regulating kinase 4 (MARK4, Homo sapiens, UniProt Q96L34)", "remaining activity [%]": 89.7}
{"data": "Sample 3", "target": "Beta-1 adrenergic receptor (ADRB1, Homo sapiens, UniProt P08588)", "mode": "agonist", "sequence of UniProt P08588 (whole entry, looked up)": "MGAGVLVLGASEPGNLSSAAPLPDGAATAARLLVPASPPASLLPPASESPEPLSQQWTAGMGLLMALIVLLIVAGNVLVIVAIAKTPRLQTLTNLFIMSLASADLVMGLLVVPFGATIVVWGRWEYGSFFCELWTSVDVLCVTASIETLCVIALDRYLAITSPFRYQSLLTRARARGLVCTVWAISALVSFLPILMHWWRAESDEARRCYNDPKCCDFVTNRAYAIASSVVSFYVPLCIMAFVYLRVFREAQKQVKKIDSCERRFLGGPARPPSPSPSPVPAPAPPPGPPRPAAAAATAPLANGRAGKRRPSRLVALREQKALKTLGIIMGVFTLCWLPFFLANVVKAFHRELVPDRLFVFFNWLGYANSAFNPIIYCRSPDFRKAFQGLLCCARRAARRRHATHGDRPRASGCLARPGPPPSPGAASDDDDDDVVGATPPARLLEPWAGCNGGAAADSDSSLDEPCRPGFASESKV"}
{"SMILES": "O=C(c1cc(-c2ccccc2)nc2ccccc12)N1CCc2c(nc[nH]c2=O)C1", "EC50": "≥ 100 µM"}
{"SMILES": "CN(C)c1cccc(-c2ncc3c(n2)OCCN(Cc2ccc(F)cc2F)C3=O)c1", "EC50": "≥ 100 µM"}
{"SMILES": "CC(O)c1ccc(N2CCN(C(O)[C@H](Cc3ccc(N(C)[S+](=O)([O-])c4cccc5cnccc45)cc3)N(C)C)CC2)cc1 (stereo partly shown)", "EC50": "≥ 100 µM"}
{"SMILES": "CN(C)c1cc(=O)c2ccnc(Nc3cccnc3)c2o1", "EC50": "≥ 100 µM"}
{"SMILES": "COc1ccccc1N1CCN(c2ncccc2CNC(=O)C2COC(=O)N2)CC1 (stereo not shown)", "EC50": "≥ 100 µM"}
{"data": "Sample 4", "SMILES": "NS(=O)(=O)c1cc(NC(=O)Cc2ccccc2)ccc1Oc1cccc(Cl)c1", "observed": "cell-free assay", "technique": "competition with immobilised ligand", "tested at": "1 µM"}
{"target": "Serine/threonine-protein kinase DCLK1 (DCLK1, Homo sapiens, UniProt O15075)", "remaining binding": "86%"}
{"target": "Cyclin-dependent kinase-like 3 (CDKL3, Homo sapiens, UniProt Q8IVW4)", "remaining binding": "95%"}
{"target": "Calcium/calmodulin-dependent protein kinase type II subunit gamma (CAMK2G, Homo sapiens, UniProt Q13555)", "remaining binding": "86%"}
{"target": "Leucine-rich repeat serine/threonine-protein kinase 2 (LRRK2, Homo sapiens, UniProt Q5S007)", "remaining binding": "72%"}
{"target": "5'-AMP-activated protein kinase catalytic subunit alpha-1 (PRKAA1, Homo sapiens, UniProt Q13131)", "remaining binding": "71%"}
{"target": "Protein kinase C epsilon type (PRKCE, Homo sapiens, UniProt Q02156)", "remaining binding": "87%"}
{"target": "Mast/stem cell growth factor receptor Kit, autoinhibited (KIT, Homo sapiens, UniProt P10721)", "remaining binding": "87%"}
{"note": "For quick reference, copied from above (sample 4):"}
{"target": "Cyclin-dependent kinase-like 3 (CDKL3, Homo sapiens, UniProt Q8IVW4)", "remaining binding": "95%"}
{"target": "Leucine-rich repeat serine/threonine-protein kinase 2 (LRRK2, Homo sapiens, UniProt Q5S007)", "remaining binding": "72%"}
{"target": "Serine/threonine-protein kinase DCLK1 (DCLK1, Homo sapiens, UniProt O15075)", "remaining binding": "86%"}
{"target": "Mast/stem cell growth factor receptor Kit, autoinhibited (KIT, Homo sapiens, UniProt P10721)", "remaining binding": "87%"}
